Assay results from different studies.
Protocols differ between the studies behind these lines.
Technique: shake flask

medium	time	pH	logD	Structure (SMILES)
PBS		pH 7.4	2.03	CC(C)[C@H](CO)Nc1nc(Nc2ccc(C(=O)NCCNS(=O)(=O)c3cccc4c(N(C)C)cccc34)c(Cl)c2)c2ncn(C(C)C)c2n1
PBS	4 h	pH 7.4	> 5	CC(C)(C)c1nc(-c2ccc(NC(=O)c3cccs3)cc2Cl)no1
PBS	2 h	pH 7.4	< 3	CCn1cc(C(=O)NCCNCCO)c(=O)c2cc(OCc3ccc(F)cc3)c(Cl)cc21
aqueous buffer		pH 7.4	0	CCNC(=O)C1OC(n2cnc3c(NCC(c4ccccc4)c4ccccc4)nc(NCCNC(=O)Nc4cc[n+](C)cc4)nc32)C(O)C1O (stereo not drawn)
PBS		pH 7.4	1.54	Cc1ccc(S(=O)(=O)OCCOC(=O)c2cc(C#N)c(N3CCC(C(=O)NS(=O)(=O)c4ccc(Cl)s4)CC3)nc2C(F)(F)F)cc1
aqueous buffer		pH 7.4	1.8	CCNC(=O)C1OC(n2cnc3c(NCC(C)C)nc(NCCNC(=O)Nc4ccncc4)nc32)C(O)C1O (stereo not drawn)
PBS		pH 7.4	3.69	O=[11C](OC(C(F)(F)F)C(F)(F)F)N1CCC(CNS(=O)(=O)c2ccc(Cl)cc2)CC1
aqueous buffer		pH 7.4	2.76	COc1cc(-c2cncc(-c3ccc(N4CCNCC4)cc3)c2C)cc(OC)c1OC
aqueous buffer		pH 7	3.49	Cc1ccccc1-c1cc(N2CCOCC2)ccc1N(C)C(=O)C(C)(C)c1cc(C(F)(F)F)cc(C(F)(F)F)c1
aqueous buffer		pH 7.4	2	O=C1CCCCC(=O)Nc2ccc3oc(cc3c2)C(=O)NCc2cccc(c2)CNC(=O)c2cc3cc(ccc3o2)N1
aqueous buffer		pH 7	> 5	Cc1ccccc1-c1cc(N2CCN(Cc3ccccc3)CC2)ccc1N(C)C(=O)C(C)(C)c1cc(C(F)(F)F)cc(C(F)(F)F)c1
aqueous buffer		pH 7.4	3.6	CCNC(=O)C1OC(n2cnc3c(NCC(c4ccccc4)c4ccccc4)nc(C(=O)NCCNC(=O)NC4CCN(c5ccccn5)CC4)nc32)C(O)C1O (stereo not drawn)
aqueous buffer		pH 7.4	2.45	COc1cc(-c2cncc(-c3ccc(N4CCNCC4)cc3)c2C)cc(OC)c1F
aqueous buffer		pH 7.4	0.3	CCNC(=O)C1OC(n2cnc3c(N)nc(C(=O)NCCNC(=O)NC4CCN(c5ccccn5)CC4)nc32)C(O)C1O (stereo not drawn)
PBS	2 h	pH 7.4	< 3	COc1cc2c(=O)c(C(=O)NCCNCCO)cn(Cc3ccccc3)c2cc1OCc1ccc(C(C)(C)C)cc1
PBS		pH 7.4	1.84	NC(=O)C(c1ccccc1)(c1ccc(F)cc1)c1ccc(OCC[18F])cc1 (stereo not drawn)
PBS	2 h	pH 7.4	< 3	CCn1cc(C(=O)NCCNCCO)c(=O)c2cc(OCc3ccc(C(F)(F)F)cc3)c(C(F)(F)F)cc21
PBS		pH 7.4	0.22	O=C(O)CN1CCN(CC(=O)O)CCN(C(CCC(=O)NCc2ccc(NC(=S)NCCOCCOCCOCCNC(=O)CCCc3ccc(I)cc3)cc2)C(=O)O)CC1 (stereo not drawn)
aqueous buffer		pH 7.4	3.7	CN1C(=O)C2(Nc3ccccc3C(=O)N2Cc2ccccc2)c2cc(Br)ccc21 (stereo not drawn)
aqueous buffer		pH 7.4	< -1.1	CCNC(=O)C1OC(n2cnc3c(NCC(C)C)nc(NCCNC(=O)Nc4cc[n+](C)cc4)nc32)C(O)C1O (stereo not drawn)
aqueous buffer		pH 7	5.06	Cc1ccccc1-c1cc(N2CCN(C)CC2)ccc1N(C)C(=O)C(C)(C)c1cc(C(F)(F)F)cc(C(F)(F)F)c1
aqueous buffer		pH 7.4	< -1	CCNC(=O)C1OC(n2cnc3c(N)nc(NCCNC(=O)Nc4cc[n+](C)cc4)nc32)C(O)C1O (stereo not drawn)
aqueous buffer		pH 7.4	3.3	O=C1CCCCC(=O)Nc2ccc3oc(cc3c2)CNCc2cccc(c2)CNCc2cc3cc(ccc3o2)N1
PBS		pH 7.4	2.08	N#Cc1cc(C(=O)OCCF)c(C(F)(F)F)nc1N1CCN(C(=O)Cc2ccccc2)CC1
aqueous buffer		pH 7.4	2.6	OCC1OC(n2cnc3c(NCC(c4ccccc4)c4ccccc4)ncnc32)C(O)C1O (stereo not drawn)
aqueous buffer		pH 7.4	-0.9	C[n+]1cc2cc3cc(ccc31)NC(=O)CCCCC(=O)Nc1ccc3c(c1)cc(c[n+]3C)C(=O)Nc1ccc3[nH]cc(c3c1)CCNC2=O
aqueous buffer		pH 7.4	< 5	O=C(Nc1ccc2c(c1)CN(c1ccc(Br)cc1)C2=O)N1CCN(c2ccc(F)cc2)CC1
aqueous buffer	12 h	pH 7.4	2.8	COc1cc(/C=C/C(=O)/C=C(O)/C=C/c2ccc(OCC(=O)N3CCOCCOCCOCCOCC3)c(OC)c2)ccc1OCC(=O)N1CCOCCOCCOCCOCC1
aqueous buffer		pH 7.4	-0.2	C[n+]1cc(NC(=O)c2ccc3ccc4ccc(C(=O)Nc5cc6ccccc6[n+](C)c5)nc4c3n2)cc2ccccc21
aqueous buffer		pH 7.4	~3.5	CC[C@@H](C)N([11CH3])C(=O)c1nc(-c2ccc(Cl)cc2)c2ccccc2n1
